Measurements gathered from unrelated publications.
Parts stem from different laboratories: compare values within a part only. Substitutions count along the parent as printed.
Sequence of UniProt O95747 (whole entry, looked up): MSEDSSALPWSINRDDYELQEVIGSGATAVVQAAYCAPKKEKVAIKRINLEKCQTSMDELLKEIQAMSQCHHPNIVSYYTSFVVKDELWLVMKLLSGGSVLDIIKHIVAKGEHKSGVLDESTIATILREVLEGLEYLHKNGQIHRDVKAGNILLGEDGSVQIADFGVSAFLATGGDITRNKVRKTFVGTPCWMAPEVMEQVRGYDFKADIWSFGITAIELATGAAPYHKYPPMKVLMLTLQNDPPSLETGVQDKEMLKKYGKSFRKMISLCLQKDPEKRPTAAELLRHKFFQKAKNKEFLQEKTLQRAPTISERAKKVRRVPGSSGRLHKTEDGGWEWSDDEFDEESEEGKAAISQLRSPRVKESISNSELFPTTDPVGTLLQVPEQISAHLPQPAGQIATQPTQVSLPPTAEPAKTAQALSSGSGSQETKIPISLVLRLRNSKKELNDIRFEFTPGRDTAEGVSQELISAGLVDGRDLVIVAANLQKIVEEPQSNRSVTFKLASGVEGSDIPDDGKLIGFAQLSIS
Sequence of UniProt P37173 (whole entry, looked up): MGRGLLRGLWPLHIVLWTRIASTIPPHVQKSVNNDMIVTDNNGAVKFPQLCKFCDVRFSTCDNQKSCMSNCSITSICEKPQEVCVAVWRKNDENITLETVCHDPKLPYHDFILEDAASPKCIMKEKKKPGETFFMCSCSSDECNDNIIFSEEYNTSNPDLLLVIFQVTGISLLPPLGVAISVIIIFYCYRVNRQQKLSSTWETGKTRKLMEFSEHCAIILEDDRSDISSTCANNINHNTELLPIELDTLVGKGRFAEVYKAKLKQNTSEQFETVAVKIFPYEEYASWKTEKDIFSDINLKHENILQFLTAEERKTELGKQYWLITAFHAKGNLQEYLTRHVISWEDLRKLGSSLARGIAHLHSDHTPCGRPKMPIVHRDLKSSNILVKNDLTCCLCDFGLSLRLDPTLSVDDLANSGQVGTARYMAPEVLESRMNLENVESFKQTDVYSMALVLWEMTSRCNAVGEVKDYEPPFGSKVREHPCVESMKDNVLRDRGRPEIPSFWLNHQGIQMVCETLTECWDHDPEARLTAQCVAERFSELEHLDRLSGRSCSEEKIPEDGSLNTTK
Sequence of UniProt P36897 (whole entry, looked up): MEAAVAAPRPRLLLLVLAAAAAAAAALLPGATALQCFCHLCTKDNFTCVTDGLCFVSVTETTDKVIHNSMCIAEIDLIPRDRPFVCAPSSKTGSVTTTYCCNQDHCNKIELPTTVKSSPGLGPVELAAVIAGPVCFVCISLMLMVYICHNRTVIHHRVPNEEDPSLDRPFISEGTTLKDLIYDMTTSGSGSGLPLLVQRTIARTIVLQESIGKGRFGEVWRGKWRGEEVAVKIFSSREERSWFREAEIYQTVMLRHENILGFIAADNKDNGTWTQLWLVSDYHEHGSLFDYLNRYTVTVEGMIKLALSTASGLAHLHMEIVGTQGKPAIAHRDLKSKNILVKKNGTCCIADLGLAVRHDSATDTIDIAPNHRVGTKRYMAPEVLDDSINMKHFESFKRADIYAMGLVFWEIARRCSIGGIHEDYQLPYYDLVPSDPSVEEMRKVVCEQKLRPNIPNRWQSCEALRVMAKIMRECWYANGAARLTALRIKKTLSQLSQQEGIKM
Sequence of UniProt O96017 (whole entry, looked up): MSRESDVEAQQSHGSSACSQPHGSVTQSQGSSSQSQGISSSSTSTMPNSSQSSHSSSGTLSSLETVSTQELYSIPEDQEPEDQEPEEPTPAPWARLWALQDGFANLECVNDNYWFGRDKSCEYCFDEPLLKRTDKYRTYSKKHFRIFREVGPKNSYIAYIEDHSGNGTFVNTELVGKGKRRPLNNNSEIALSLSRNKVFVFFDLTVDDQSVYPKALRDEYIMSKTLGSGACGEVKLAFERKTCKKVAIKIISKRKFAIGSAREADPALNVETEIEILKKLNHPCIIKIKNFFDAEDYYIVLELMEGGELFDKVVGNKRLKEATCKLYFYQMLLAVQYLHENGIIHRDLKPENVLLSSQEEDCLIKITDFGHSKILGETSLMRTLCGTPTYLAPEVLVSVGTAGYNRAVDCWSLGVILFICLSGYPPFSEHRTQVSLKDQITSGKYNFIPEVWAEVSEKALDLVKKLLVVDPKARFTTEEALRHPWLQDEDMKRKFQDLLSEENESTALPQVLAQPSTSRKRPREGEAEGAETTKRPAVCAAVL
Sequence of UniProt Q14164 (whole entry, looked up): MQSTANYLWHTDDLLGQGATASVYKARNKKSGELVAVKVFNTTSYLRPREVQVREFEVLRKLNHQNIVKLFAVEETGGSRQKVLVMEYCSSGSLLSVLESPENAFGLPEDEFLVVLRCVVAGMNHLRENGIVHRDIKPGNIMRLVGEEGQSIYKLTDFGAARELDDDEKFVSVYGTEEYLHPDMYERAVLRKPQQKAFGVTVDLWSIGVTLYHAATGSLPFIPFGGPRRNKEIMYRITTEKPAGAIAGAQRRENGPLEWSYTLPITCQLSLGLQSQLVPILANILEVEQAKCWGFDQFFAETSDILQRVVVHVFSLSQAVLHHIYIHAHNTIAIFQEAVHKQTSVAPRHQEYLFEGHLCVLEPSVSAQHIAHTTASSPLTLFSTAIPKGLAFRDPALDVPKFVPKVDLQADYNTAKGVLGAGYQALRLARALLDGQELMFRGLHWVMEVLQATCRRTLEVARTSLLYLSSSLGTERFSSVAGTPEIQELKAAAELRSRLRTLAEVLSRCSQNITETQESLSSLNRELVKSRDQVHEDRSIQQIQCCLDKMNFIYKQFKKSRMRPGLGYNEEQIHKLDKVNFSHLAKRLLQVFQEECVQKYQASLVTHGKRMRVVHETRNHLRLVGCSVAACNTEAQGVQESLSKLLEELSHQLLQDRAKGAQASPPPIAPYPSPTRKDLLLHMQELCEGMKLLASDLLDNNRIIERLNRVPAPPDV
Sequence of UniProt P35626 (whole entry, looked up): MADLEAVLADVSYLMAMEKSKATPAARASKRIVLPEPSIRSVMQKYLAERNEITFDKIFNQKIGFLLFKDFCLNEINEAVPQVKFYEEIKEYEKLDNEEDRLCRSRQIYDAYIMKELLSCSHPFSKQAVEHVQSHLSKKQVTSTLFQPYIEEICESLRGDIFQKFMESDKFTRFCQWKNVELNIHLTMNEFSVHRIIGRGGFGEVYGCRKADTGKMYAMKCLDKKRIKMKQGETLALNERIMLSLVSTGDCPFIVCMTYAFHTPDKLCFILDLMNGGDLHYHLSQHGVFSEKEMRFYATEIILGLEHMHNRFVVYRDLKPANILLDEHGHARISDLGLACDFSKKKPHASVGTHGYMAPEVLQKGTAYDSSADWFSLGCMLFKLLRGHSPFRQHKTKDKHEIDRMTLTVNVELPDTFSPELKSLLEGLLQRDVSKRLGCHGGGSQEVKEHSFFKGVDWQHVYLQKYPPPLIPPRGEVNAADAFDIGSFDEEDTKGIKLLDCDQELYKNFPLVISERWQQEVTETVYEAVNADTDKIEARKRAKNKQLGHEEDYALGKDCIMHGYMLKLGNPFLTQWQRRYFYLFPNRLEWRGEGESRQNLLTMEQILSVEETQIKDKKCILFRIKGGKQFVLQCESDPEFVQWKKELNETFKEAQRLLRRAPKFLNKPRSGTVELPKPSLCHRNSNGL
Sequence of UniProt Q99759 (whole entry, looked up): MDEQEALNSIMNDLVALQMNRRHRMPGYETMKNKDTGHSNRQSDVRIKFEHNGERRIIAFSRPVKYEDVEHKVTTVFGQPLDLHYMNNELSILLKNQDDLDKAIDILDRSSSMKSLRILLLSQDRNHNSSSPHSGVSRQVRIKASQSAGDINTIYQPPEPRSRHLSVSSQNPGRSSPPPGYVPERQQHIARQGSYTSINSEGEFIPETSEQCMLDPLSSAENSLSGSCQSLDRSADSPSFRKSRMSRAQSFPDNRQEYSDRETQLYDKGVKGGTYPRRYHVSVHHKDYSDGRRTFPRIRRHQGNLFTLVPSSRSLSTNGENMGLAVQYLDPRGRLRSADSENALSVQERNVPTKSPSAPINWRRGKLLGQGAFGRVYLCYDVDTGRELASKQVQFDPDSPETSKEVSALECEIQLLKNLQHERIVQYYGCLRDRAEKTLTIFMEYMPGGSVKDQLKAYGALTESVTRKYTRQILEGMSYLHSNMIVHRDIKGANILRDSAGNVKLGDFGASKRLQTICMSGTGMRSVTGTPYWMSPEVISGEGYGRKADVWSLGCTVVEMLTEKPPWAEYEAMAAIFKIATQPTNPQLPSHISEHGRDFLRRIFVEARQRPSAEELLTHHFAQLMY
Sequence of UniProt Q15831 (whole entry, looked up): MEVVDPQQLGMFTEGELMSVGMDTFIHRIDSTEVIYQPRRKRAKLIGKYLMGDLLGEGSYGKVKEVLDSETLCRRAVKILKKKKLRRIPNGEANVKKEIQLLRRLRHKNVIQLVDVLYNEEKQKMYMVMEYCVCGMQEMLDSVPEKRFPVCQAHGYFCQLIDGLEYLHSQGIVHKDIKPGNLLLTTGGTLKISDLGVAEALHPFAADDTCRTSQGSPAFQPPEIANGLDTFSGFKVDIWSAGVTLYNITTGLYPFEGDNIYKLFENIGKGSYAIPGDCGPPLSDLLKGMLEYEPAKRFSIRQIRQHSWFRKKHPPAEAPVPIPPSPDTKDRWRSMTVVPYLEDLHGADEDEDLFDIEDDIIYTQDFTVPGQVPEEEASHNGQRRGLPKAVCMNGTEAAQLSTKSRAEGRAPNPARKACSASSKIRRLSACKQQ

Block 1
Target: Prothrombin, mature alpha-thrombin (F2, Homo sapiens, UniProt P00734)
Method: aptamer microarray, sandwich
Form: DNA with 2'F-ANA
Matrix: in vitro
Tested at: 200 nM
Setting: whole 15-mer aptamer, many near background
With: Cy3 exosite-II aptamer, 400 nM
Direction: higher = stronger binding
Sequence: GGTTGGTGTGGTTGG
| Modification | mean fluorescence intensity |
| --- | --- |
| 2'F-ANA at 1 3 4 7 9 10 11 12 | 79.1 a.u. |
| 2'F-ANA at 1 2 3 4 7 8 10 11 12 13 14 | 64.5 a.u. |
| 2'F-ANA at 1 5 7 9 11 12 13 14 | 43 a.u. |
| 2'F-ANA at 2 3 4 7 11 12 13 15 | 637 a.u. |
| 2'F-ANA at 2 3 6 7 9 10 12 13 | 332 a.u. |
| 2'F-ANA at 2 5 6 8 10 11 12 15 | 78.3 a.u. |
| 2'F-ANA at 3 4 5 7 9 11 | 103 a.u. |
| 2'F-ANA at 5 6 10 12 14 | 43.8 a.u. |

Block 2
Target: CEBPE, bZIP domain (human)
Method: DHFR protein complementation
Matrix: yeast
Setting: single substitutions, most at no-binding floor
Relative to: wild-type JUN-FOS pair
Direction: higher = stronger binding
Starting sequence: JUN, bZIP domain (human); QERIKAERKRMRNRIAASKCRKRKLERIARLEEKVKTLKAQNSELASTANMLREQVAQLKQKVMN; partner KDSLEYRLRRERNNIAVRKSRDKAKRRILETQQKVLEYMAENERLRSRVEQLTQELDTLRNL
| Variant | binding fitness [natural log] |
| --- | --- |
| A46L | -0.99 |
| A49R | -1.39 |
| S43C | -1.17 |
| A57Y | -1.06 |
| T37R | -1.14 |
| A29T | -1.12 |
| T48A | -1.24 |
| L38Q | -1.57 |

Block 3
Structure (SMILES): Cc1cc(Nc2cc(N3CCN(C)CC3)nc(Sc3ccc(NC(=O)C4CC4)cc3)n2)[nH]n1
Observed: enzyme activity
Action: inhibitor
Tested at: 0.5 µM
Relative to: control
| target | remaining activity |
| --- | --- |
| G protein-coupled receptor kinase 3 (GRK3, Homo sapiens, UniProt P35626) | 96.1% |
| TGF-beta receptor type-2 (TGFBR2, Homo sapiens, UniProt P37173) | 102% |
| STE20/SPS1-related proline-alanine-rich protein kinase (STK39, Homo sapiens, UniProt Q9UEW8) | 94.9% |
| Serine/threonine-protein kinase Chk2 (CHEK2, Homo sapiens, UniProt O96017) | 100% |
| Inhibitor of nuclear factor kappa-B kinase subunit epsilon (IKBKE, Homo sapiens, UniProt Q14164) | 84.8% |
| cAMP-dependent protein kinase catalytic subunit alpha (PRKACA, Homo sapiens, UniProt P17612) | 98.1% |
| TGF-beta receptor type-1 (TGFBR1, Homo sapiens, UniProt P36897) | 94.7% |
| Protein kinase C beta type, isoform beta-I (PRKCB, Homo sapiens, UniProt P05771) | 81.1% |
| Serine/threonine-protein kinase STK11 (STK11, Homo sapiens, UniProt Q15831) | 102% |
| Serine/threonine-protein kinase OSR1 (OXSR1, Homo sapiens, UniProt O95747) | 99.5% |
| Mitogen-activated protein kinase kinase kinase 3 (MAP3K3, Homo sapiens, UniProt Q99759) | 113% |

Block 4
Target: Translocator protein (Tspo, Rattus norvegicus, UniProt P16257)
Sequence of UniProt P16257 (whole entry, looked up): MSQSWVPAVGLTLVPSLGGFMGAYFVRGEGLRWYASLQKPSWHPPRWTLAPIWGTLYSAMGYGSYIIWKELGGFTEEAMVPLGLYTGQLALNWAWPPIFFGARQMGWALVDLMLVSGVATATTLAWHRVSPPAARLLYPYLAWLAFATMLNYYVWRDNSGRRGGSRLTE
Observed: radioligand binding
Method: radioligand displacement
Tested at: 10 µM
| SMILES | inhibition [%] |
| --- | --- |
| O=C(O)[C@H]1[C@H](Cn2nnc3ccccc3c2=O)CC[C@@H]1C(=O)c1ccc(OCCC2CCOCC2)cc1 | 9.67 |
| CNCc1ccccc1-c1csc([C@H](C)Nc2nc(C)nc3cc(OC)c(OC)cc23)c1 | -11.4 |
| O=c1nc(-c2ccccn2)sc2ccccc12 | 9.91 |
| CC(=O)C1=C(C)N(c2cccc(C(F)(F)F)c2)C(=O)N[C@H]1c1ccc(C#N)nc1 | -17.8 |
| CC(=O)N1CCC(c2ccc(C(=O)NC(=N)N)cc2C(F)(F)F)CC1 | 6.39 |
| Cn1cc(Cl)c2c(Oc3c(F)cc(Nc4cc(Cl)nc(N)n4)cc3F)ccnc21 | -10.3 |

For quick reference, copied from above (block 1):
| Modification | mean fluorescence intensity |
| --- | --- |
| 2'F-ANA at 5 6 10 12 14 | 43.8 a.u. |
| 2'F-ANA at 2 3 4 7 11 12 13 15 | 637 a.u. |
| 2'F-ANA at 3 4 5 7 9 11 | 103 a.u. |
| 2'F-ANA at 2 5 6 8 10 11 12 15 | 78.3 a.u. |
| 2'F-ANA at 1 3 4 7 9 10 11 12 | 79.1 a.u. |
